Assay results of several laboratories.
± marks the error that the study gave.

Structure (SMILES)	assay	test system	setting	how to read	endpoint	result
CCCCCCCC/C=C\CCCCCCCCOP(O)(O)=S.N		mouse, female, irradiated	subcutaneous, single dose 24 h after irradiation, with: 15.6 Gy partial-body irradiation		CL/F	10.5 mL/min/kg
CC[C@H](C)C(=O)N1CCC(NC(=O)Nc2ccc(OC(F)(F)F)c(F)c2)CC1		human, plasma	oral, 8 mg, single dose, fasted, healthy volunteers, tablet		half-life	66.9 h
CN(C)c1cc(CN2CCCCC2)c(O)c2c1C[C@H]1C[C@H]3[C@H](N(C)C)C(O)=C(C(N)=O)C(=O)[C@@]3(O)C(O)=C1C2=O		cynomolgus monkey	intravenous infusion, dose not given		tolerability	not toxic
COc1cc2ccnc(Cc3ccc(O[11CH3])c(OC)c3)c2cc1OC		Sprague-Dawley rat, cerebellum	i.v., 5 min		brain uptake	0.161 %ID/g
CCC[C@@H]1O[C@@H]2C[C@H]3[C@@H]4C[C@H](F)C5=CC(=O)CC[C@]5(C)[C@@]4(F)[C@@H](O)C[C@]3(C)[C@]2(C(=O)CO)O1	measured: parent steroid	CD1 mice, plasma	intravenous, 0.15 mg/kg, with: budesonide 0.2 mg/kg		AUC	0.072 µM·h
CN(C)C(CNC(=O)Nc1cc(C(F)(F)F)ccc1N1CCOCC1)c1ccncc1 (stereo not shown)		mouse, serum	intraperitoneal, 180 mg/kg single dose		serum anion gap	19 mmol/L
NC(=O)[C@H](Cc1ccccc1)N[11C](=O)OCc1ccccc1	dynamic PET	Wistar rat, male, spinal cord	intravenous, 13.1 MBq		time to maximum uptake	10 min
CC(=O)[O-].F[P-](F)(F)(F)(F)F.[Co+2].c1ccc(CN2CCCN3CCN(CCCN(Cc4ccccc4)CC3)CC2)cc1	cyclic voltammetry	acetonitrile		baseline: SHE	irreversible oxidation potential	1.23 V
CSCC[C@H](NC(=O)CNC(=O)[C@H](CC(=O)O)NC(=O)[C@@H](NC(=O)[C@@H](NC(=O)[C@@H](NC(=O)CNC(=O)[C@H](CCC(N)=O)NC(=O)[C@H](CCSC)NC(=O)[C@H](CC(=O)O)NC(=O)[C@H](C)NC(=O)[C@H](C)NC(=O)[C@@H](NC(=O)[C@H](CO)NC(=O)[C@@H](N)CC(C)C)[C@@H](C)O)C(C)C)C(C)C)[C@@H](C)O)C(=O)N[C@@H](C)C(=O)N[C@@H](CO)C(=O)NCC(=O)N[C@@H](CC(C)C)C(=O)N[C@@H](CC(=O)O)C(=O)N[C@@H](CCCCN)C(=O)N[C@@H](CC(=O)O)C(=O)N[C@@H](Cc1ccc(O)cc1)C(=O)N[C@@H](CC(C)C)C(=O)N[C@@H](CCCCN)C(=O)N1CCC[C@H]1C(=O)N[C@@H](CC(=O)O)C(=O)N[C@@H](CC(=O)O)C(=O)O		human patients, serum	intravenous infusion, 1 mg/kg		distribution half-life	8.64 min
COc1ccc(C)cc1NC(=O)OC1CC2CCCC(C1)N2Cc1ccc(CC[18F])cc1 (stereo not shown)		BALB/c mice, EMT6 tumour, kidney	5 min		tissue uptake	22.4 ± 2.91 %ID/g
CC(C)[C@@H]1NC(=O)[C@H](Cc2ccccc2)NC(=O)[C@H](Cc2ccc(O)cc2)NC(=O)CCSSC[C@@H](C(=O)N2CCC[C@H]2C(=O)N[C@H](CCCNC(=N)N)C(=O)NCC(N)=O)NC(=O)[C@H](CCC(N)=O)NC1=O		Wistar rat, blood	intravenous, 10 µg/kg single dose, 72 h		total protein	6.7 ± 0.6 g/dL
Cc1ccc(C(C)C)cc1.[Cl][Ru+].[O-]c1ccccc1C=NCCNc1ccnc2cc(Cl)ccc12	shake-flask method	water/n-octanol	pH 4.9		distribution coefficient D	0.4 ± 0.02
CC(C)[C@H](NC(=O)CNC(=O)[C@H](CCC(N)=O)NC(=O)[C@H](C)N)C(=O)O		human	3 mg/kg single dose		subjects with mild adverse events	33.3%
CCNc1cc2[o+]c3cc(NCC)c(C)cc3c(-c3ccccc3C(=O)OCCOCC[18F])c2cc1C	HPLC	rat, urine	60 min		intact compound	79 ± 7%
CC(=CCC(O)C(C)=Cc1csc(C)n1)CC=CC(C)C(O)C(C)C(=O)C(C)(C)C(O)CC(=O)O (stereo not shown)		human, plasma	intravenous infusion, 20.0 mg/m2 KOS-1584, 3 h infusion, cycle 1		Tmax	3.05 ± 0.08 h
CCCC[C@H](NC(=O)CN1CCC(NC(=O)CN2CCC(NC(=O)CN3CCN(CC(=O)O)CCN(CC(=O)O)CCN(CC(=O)O)CC3)CC2)CC1)C(=O)N[C@H]1CC(=O)NCCCC[C@@H](C(N)=O)NC(=O)[C@H](Cc2c[nH]c3ccccc23)NC(=O)[C@H](CCCNC(=N)N)NC(=O)[C@@H](Cc2ccccc2)NC(=O)[C@H](Cc2c[nH]cn2)NC1=O [gallium-68 labelled]	biodistribution	C57BL/6J mouse male tumour-bearing	1 h post injection, unblocked	baseline: tumour over bone	tumour to bone ratio	40.8 ± 5.2
C[C@@H]1CC[C@H]2[C@@H](C)CO[C@@H]3O[C@@]4(C)CC[C@@H]1[C@]32OO4		male Sprague-Dawley rat, plasma	oral, 100 mg/kg		AUC(0-inf)	3160 ng·h/mL
C[C@@H](O)[C@H](NC(=O)[C@H](CCCCN)NC(=O)COCCN)C(=O)N[C@@H](CCCNC(=N)N)C(=O)NC(C)(C)C(=O)N[C@@H](CCCNC(=N)N)C(=O)NC(C)(C)C(=O)N[C@H](C(=O)N[C@@H](CO)C(=O)N[C@@H](Cc1c[nH]cn1)C(=O)N[C@@H](Cc1ccc(O)cc1)C(=O)NCC(=O)O)[C@@H](C)O		C57BL/6 mouse, blood	intravenous, 50 mg/kg, 10 h	baseline: leukocytes	lymphocytes	20 to 40%
CSCC[C@H](NC(=O)[C@H](CC(N)=O)NC(=O)[C@@H](N)Cc1ccccc1)C(=O)N[C@@H](CCC(N)=O)C(=O)N[C@@H](C)C(=O)N[C@@H](CCC(N)=O)C(=O)N[C@@H](CCCNC(=N)N)C(=O)N[C@@H](CCCNC(=N)N)C(=O)N[C@@H](Cc1ccccc1)C(=O)N[C@@H](Cc1ccc(O)cc1)C(=O)N[C@@H](CCC(=O)O)C(=O)N[C@@H](C)C(=O)N[C@@H](CC(C)C)C(=O)N[C@@H](Cc1c[nH]cn1)C(=O)N[C@@H](CC(=O)O)C(=O)NCC(=O)NCC(=O)NCC(=O)NCC(=O)N[C@@H](CO)C(=O)N[C@@H](C)C(=O)N[C@@H](CCC(=O)O)C(=O)N[C@@H](C)C(=O)N[C@@H](CCC(=O)O)C(=O)N[C@@H](C)C(=O)N[C@@H](CCCCN)C(=O)N[C@@H](C)C(=O)N[C@@H](CCCCN)C(=O)N[C@@H](C)C(=O)N[C@@H](CCC(=O)O)C(=O)N[C@@H](C)C(=O)N[C@@H](CCC(=O)O)C(=O)N[C@@H](C)C(=O)N[C@@H](CCCCN)C(=O)N[C@@H](C)C(=O)N[C@@H](CCCCN)C(=O)O		EAK peptide fibrils	overnight, 37 °C, PBS, with: EAK to compound ratio 1:1		incorporation into fibrils	12%
CC(C)[C@H](NC(=O)CNC(=O)[C@H](CCC(N)=O)NC(=O)[C@H](C)N)C(=O)O		healthy male volunteers	intravenous, 15 mg/kg/h, 2 h, with: LPS 2 ng/kg		subjects with Probably related AE	0%
N=C(N)NCc1ccc(C(=O)NCCCC[C@H](NC(=O)CCCCCCC(=O)NCCCC[C@H](NC(=O)N[C@@H](CCC(=O)O)C(=O)O)C(=O)O)C(=O)O)cc1[131I]		SCID mouse, PC-3 xenografts, stomach	2 h		tissue uptake	1.03 ± 0.62 %ID/g
COc1cc(C(=O)NCCOCCOCCOCCNC(=O)c2ccc([18F])nc2)ccc1NC(=O)C1NC(CC(C)(C)C)C(C#N)(c2ccc(Cl)cc2F)C1c1cccc(Cl)c1F (stereo not shown)		athymic male mice, HepG2 xenograft	2 h	baseline: tumour over liver	tumour-to-tissue ratio	1.09 ± 0.42
O=C(c1ccc(F)cc1)C1CCN(C2Cc3c(cccc3OCC[18F])CC2O)CC1 (single isomer, unassigned; (-))		Sprague-Dawley rat male, brain stem	intravenous, 5 min		brain uptake	0.683 %ID/g
CSCC[C@@H]1NC(=O)[C@@H]2CSSC[C@H](NC(=O)[C@H](CO)NC(=O)[C@H](C)N)C(=O)N[C@@H](CCCNC(=N)N)C(=O)N[C@@H]([C@@H](C)O)C(=O)N3CCC[C@H]3C(=O)N[C@@H](CCCCN)C(=O)N[C@@H](CC(=O)O)C(=O)N[C@H]3CSSC[C@H](NC(=O)[C@H](CCCCN)NC(=O)[C@H](CCCNC(=N)N)NC(=O)[C@H](CC(N)=O)NC1=O)C(=O)N[C@@H](CCCCN)C(=O)N[C@H]1CSSC[C@H](NC(=O)[C@@H]4CCCN4C(=O)[C@H](CC(=O)O)NC(=O)[C@H](C)NC3=O)C(=O)N[C@@H](C)C(=O)N[C@@H](CCCCN)C(=O)N[C@@H](CCC(=O)O)C(=O)N[C@@H]([C@@H](C)O)C(=O)NCC(=O)N[C@@H](CSSC[C@@H](C(N)=O)NC(=O)[C@H](CCCNC(=N)N)NC(=O)[C@H](CC(N)=O)NC1=O)C(=O)N1CCC[C@H]1C(=O)N[C@@H](Cc1ccc(O)cc1)C(=O)NCC(=O)N[C@@H](CCCCN)C(=O)N2		DA rat, pristane-induced arthritis, serum	subcutaneous, single 0.1 mg/kg at onset, end of 21-day trial		gamma-glutamyl transferase	1.2 U/L
COC(=O)C[C@H](NC(=O)[C@H](C)NC(=O)[C@@H](NC(=O)[C@H](CC(=O)OC)NC(=O)[C@@H](NC(=O)c1ccc2ccccc2n1)C(C)C)C(C)C)C(=O)COc1c(F)cccc1F		adult rat, brain	intraperitoneal, dose not given		detection time	0.25 h
CC[C@H](C)[C@H](NC(=O)[C@H](CCCCN)NC(=O)[C@H](Cc1ccccc1)NC(=O)[C@H]1CCC[C@@H]1NC(=O)[C@@H](N)CCCCN)C(=O)N[C@@H](C)CC(=O)N[C@@H](CCCCN)C(=O)N[C@@H](CCCCN)C(=O)N[C@H]1CCC[C@@H]1C(=O)N[C@H](C(=O)N[C@@H](CCCCN)C(=O)N[C@H](C(=O)N[C@H](CC(N)=O)Cc1ccccc1)[C@@H](C)O)C(C)C	RP-HPLC C18		hydrophobicity		retention time	14.02 ± 0.04 min
NC(=O)[C@@H](CCCCNC(=O)CNC(=O)CCC(=O)NCCc1c[nH]cn1)NC(=O)[C@@H](Cc1ccc(O)cc1)NC(=O)[C@@H](CCCCNC(=O)CNC(=O)CCC(=O)NCCc1c[nH]cn1)NC(=O)Cc1ccc(CN2CCN(CC(=O)O)CCN(CC(=O)O)CC2)cc1 [fluorine-18 labelled]		human serum	4 h, 37 °C		serum stability	stable
CCCCCCCCCCCCC(=O)O.O=C1CCCC2C3CCCN4CCCC(CN12)C34 (stereo not shown)	electrical conductivity	water	293.15 K		standard enthalpy of aggregation	-0.734 kcal/mol

For quick reference, copied from above:
Structure (SMILES)	assay	test system	setting	how to read	endpoint	result
CC(C)[C@@H]1NC(=O)[C@H](Cc2ccccc2)NC(=O)[C@H](Cc2ccc(O)cc2)NC(=O)CCSSC[C@@H](C(=O)N2CCC[C@H]2C(=O)N[C@H](CCCNC(=N)N)C(=O)NCC(N)=O)NC(=O)[C@H](CCC(N)=O)NC1=O		Wistar rat, blood	intravenous, 10 µg/kg single dose, 72 h		total protein	6.7 ± 0.6 g/dL
CN(C)C(CNC(=O)Nc1cc(C(F)(F)F)ccc1N1CCOCC1)c1ccncc1 (stereo not shown)		mouse, serum	intraperitoneal, 180 mg/kg single dose		serum anion gap	19 mmol/L
NC(=O)[C@H](Cc1ccccc1)N[11C](=O)OCc1ccccc1	dynamic PET	Wistar rat, male, spinal cord	intravenous, 13.1 MBq		time to maximum uptake	10 min
